Measured values of several laboratories.
Numbered parts are unrelated; each lists some results of a single study.

Block 1
Target: RING finger protein unkempt homolog, zinc fingers 1-6, GST-SBP tag (UNK, Homo sapiens, UniProt Q9C0B0, residues 30-357)
UniProt Q9C0B0, sequence (30-357, looked up): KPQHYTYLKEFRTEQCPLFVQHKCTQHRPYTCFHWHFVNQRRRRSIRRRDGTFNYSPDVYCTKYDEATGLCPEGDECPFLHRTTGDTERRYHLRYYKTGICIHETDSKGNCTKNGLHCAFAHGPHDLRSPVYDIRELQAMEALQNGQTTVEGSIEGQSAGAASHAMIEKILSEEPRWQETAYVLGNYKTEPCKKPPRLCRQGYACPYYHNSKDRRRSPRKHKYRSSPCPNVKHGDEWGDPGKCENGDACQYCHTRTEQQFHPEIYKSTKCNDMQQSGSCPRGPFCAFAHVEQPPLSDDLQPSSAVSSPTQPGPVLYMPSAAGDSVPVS
Method: RNA Bind-n-Seq
Form: RNA
Matrix: in vitro
Concentration: not given
Notes: RNA with constant flanks, human and mouse sites, ends assumed
Relative to: input RNA pool
Direction: higher = stronger binding
`GGGAGUUCUACAGUCCGACGAUCGUAUUGGUUGGUGGUCCUGUCCCCUAAAGAUCAAGCUACACAUCAGUUUUACAAUAUAAAUACUUGUACUACCUUAAUGAUAAGGACUCCUUAAAGUUCCAUUUGCUAAUGAUUAAUACACAACAGAGGAUUGAGCAUCA` gave a bound/input enrichment of 0.402 ratio.
For `GGGAGUUCUACAGUCCGACGAUCAUAAAAUAAAAAUAAAAUAAAACAGAAAUAUUACUCUUCCAUAUUCCUUCUGGCUAUAUUUAGUAAUUAAUUUAUUUUAUGGUAAAGUUCUAAUGACAUGUAAAUUGUUUCAGCAAAGCUCAACAGAGGAUUGAGCAUCA`, the bound/input enrichment was 1.37 ratio.
`GGGAGUUCUACAGUCCGACGAUCCUGAGACUUUCAAGCCGGCCGCGUCUCCUUCCUCCCCCUUCCCUCCCCCUUUUUUGUUUUCCGUUCCCCUUCCCCCUCCCUUCCCCGUCCCCGACGACCGGAUCCAGAGGAGGCAGCUGCCAACAGAGGAUUGAGCAUCA` gave a bound/input enrichment of 1.32 ratio.
`GGGAGUUCUACAGUCCGACGAUCUAUAAUAAUCAUGAAAUUCGUUCUGGAAAACAUAUUGGUGUCUGCAUCUCAGUUGCCAACAAUAGGCUUUUUGUGGGCUCUAUUCCUAAGAGUAAAACCAAGGAACAGAUUCUUGAAGAACAACAGAGGAUUGAGCAUCA` gave a bound/input enrichment of 1.25 ratio.

Block 2
Target: Histone acetyltransferase KAT6A, both winged helices, GST fusion (KAT6A, Homo sapiens, UniProt Q92794, residues 1-181)
Method: protein binding microarray
Form: double-stranded DNA, one strand shown
Matrix: in vitro
Concentration: not given
Notes: 8-mer, flanks averaged, mean of 2 arrays, mostly near background
Relative to: not given
Direction: higher = stronger binding
Construct (chain): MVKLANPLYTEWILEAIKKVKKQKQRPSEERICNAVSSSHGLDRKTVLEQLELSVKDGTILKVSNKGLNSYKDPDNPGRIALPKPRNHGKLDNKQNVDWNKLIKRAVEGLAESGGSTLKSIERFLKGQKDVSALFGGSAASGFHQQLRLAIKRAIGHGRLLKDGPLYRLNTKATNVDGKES
The E-score of `ACACGACT` is reported as 0.0327.
With `TGTGTGAA` the E-score was -0.073.
The E-score of `GCGACCGA` is reported as 0.0998.
With `GCCAAGGA` the E-score was -0.131.

Block 3
Target: Interferon regulatory factor 5, full length, phosphomimetic (IRF5, Homo sapiens, UniProt Q13568-2, residues 1-514, K96S/S451D/S453D/S456D/S462D)
Method: protein-binding microarray
Form: double-stranded DNA, one strand shown
Matrix: in vitro
Concentration: 250 nM
Notes: 60-bp whole probe
With: salmon DNA 0.4 mg/ml
Relative to: random background probes
Direction: higher = stronger binding
The log fluorescence of `GCCTAGCACGACGGTTTCGGGTTTAGGGACGTGCTAGTCTTGATTCGCTTGACGCTGCTG` is reported as 7.24 z-score.
`GCCTAGCACGACGGTTTCGACATTGGGGACGTGCTAGTCTTGATTCGCTTGACGCTGCTG` has a log fluorescence of 4.8 z-score.
With `GCCTAGCACTTAGGTCTCCGACTGGGTTAGTGCTAGGTCTTGATTCGCTTGACGCTGCTG` the log fluorescence was -0.289 z-score.
With `GCCTAGCACGACGGTTTCGACTATCGGGGCGTGCTAGTCTTGATTCGCTTGACGCTGCTG` the log fluorescence was 6.92 z-score.

Other studies, line by line
`PhoQ, residues 284 288 289 292 302 303 SNSSNI` has a fold induction of 0.89 (PhoP, residues 12 14 15 18 19 NQAHL (Escherichia coli, UniProt P23836); Sort-seq, measured: YFP reporter; E. coli; PhoQ-PhoP variant library, with: 10 µM Mg2+; relative to: high Mg2+ state, higher = stronger signaling).

Some of these lines once more (block 2):
The E-score of `GCGACCGA` is reported as 0.0998.
With `GCCAAGGA` the E-score was -0.131.
